Measured values gathered from unrelated publications.
A part holds a random share of what one study measured.
Sequence of UniProt O15294 (whole entry, looked up): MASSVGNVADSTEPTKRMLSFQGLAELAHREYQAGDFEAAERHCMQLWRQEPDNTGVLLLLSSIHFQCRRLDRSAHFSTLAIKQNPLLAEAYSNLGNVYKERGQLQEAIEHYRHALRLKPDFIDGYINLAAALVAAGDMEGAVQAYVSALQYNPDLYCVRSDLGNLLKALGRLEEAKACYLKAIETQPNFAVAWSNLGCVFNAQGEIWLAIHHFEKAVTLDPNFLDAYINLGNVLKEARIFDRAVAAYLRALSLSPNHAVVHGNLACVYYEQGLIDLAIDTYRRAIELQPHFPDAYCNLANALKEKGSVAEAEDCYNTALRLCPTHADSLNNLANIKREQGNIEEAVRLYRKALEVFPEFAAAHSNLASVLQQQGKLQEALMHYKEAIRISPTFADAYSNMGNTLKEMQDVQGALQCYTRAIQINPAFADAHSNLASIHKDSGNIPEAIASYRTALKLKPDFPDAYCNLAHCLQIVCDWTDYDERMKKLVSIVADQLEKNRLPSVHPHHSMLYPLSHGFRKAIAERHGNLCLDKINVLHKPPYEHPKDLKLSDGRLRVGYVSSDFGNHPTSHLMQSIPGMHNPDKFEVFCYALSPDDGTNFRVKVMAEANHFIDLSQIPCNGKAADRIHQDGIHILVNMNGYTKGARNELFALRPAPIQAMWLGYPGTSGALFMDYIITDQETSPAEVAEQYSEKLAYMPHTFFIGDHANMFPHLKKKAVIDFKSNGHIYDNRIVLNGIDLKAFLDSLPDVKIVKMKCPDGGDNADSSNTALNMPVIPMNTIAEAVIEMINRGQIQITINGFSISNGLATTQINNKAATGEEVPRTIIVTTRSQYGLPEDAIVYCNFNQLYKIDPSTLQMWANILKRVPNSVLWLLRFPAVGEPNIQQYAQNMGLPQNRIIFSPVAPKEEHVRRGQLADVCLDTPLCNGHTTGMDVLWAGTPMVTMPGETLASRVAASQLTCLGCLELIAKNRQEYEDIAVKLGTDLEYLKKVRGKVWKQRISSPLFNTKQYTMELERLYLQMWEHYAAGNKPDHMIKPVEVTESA

Block 1
Target: Ras GTPase-activating protein-binding protein 1, RRM domain (G3BP1, Homo sapiens, UniProt Q13283)
Sequence of UniProt Q13283 (whole entry, looked up): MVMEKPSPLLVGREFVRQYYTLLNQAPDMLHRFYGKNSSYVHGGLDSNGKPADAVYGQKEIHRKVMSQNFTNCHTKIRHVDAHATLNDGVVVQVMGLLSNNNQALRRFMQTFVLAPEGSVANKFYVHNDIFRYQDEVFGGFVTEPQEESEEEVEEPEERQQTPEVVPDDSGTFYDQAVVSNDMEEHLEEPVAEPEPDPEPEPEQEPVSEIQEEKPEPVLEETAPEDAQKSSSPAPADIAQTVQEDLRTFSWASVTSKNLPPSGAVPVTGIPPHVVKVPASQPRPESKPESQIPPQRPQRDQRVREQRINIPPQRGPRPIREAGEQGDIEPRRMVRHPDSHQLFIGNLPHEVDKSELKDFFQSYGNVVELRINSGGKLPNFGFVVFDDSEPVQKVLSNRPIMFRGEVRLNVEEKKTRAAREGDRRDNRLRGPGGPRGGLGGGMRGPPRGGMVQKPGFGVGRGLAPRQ
Method: RNA Bind-n-Seq
Molecule type: RNA
Sample: in vitro
Concentration: 1 µM
Setting: whole 134-nt RNA, ends assumed
Together with: 150 mM KCl
Reference: input library
Direction: higher = stronger binding
Measurement: log2 enrichment
All sequences stand within: GGGAGUUCUACAGUCCGACGAUC … UGGAAUUCUCGGGUGUCAAGG
Oligonucleotide = CUGUGCUACACAUCGUAUGUACCGAAUCGGGGAAAAAAAGGGGUUUUUGGGGAAAAAGGGGAAAGUAUUAUGUUACGCCGUUCGGAUCUG; value = 0.933
Oligonucleotide = AAGUCCUGUGCUACACAUCGUAUGUACCGAAUCGGUUUUUGGUUUGGAAAAAAAGGAAAGUAUUAUGUUACGCCGUUCGGAUCUGCACUU; value = -0.201
Oligonucleotide = UAACUUUAGAGGAGGAUCUGAUGGAUAUGGCAGUGCACGUGGAUUUGGGGAUGGCUAUAAUGGGUAUGGAGGAGGACCUGGAGGUGGCAA; value = -0.627
Oligonucleotide = AAGUCCUGUGCUACACAUCGUAUGUACCGAAUCGGAAAAGGGAAAAGGGGAAAAGGAAAGUAUUAUGUUACGCCGUUCGGAUCUGCACUU; value = -0.146
Oligonucleotide = CACAGACAACACGCACCCACACAGACACAGAGGGAAGGGGUUGGGAUGGGGACAGGGUGCACAGCAAAGCGGGGUAGGACCCCAGCCCCU; value = -0.0899
Oligonucleotide = UGGCCCUGGUGGCAUGCGCGGAGGAAGAGGUGGCCUCAUGGAUCGUGGUGGUCCCGGUGGAAUGUUCAGAGGUGGCCGUGGUGGAGACAG; value = 0.946
Oligonucleotide = CACAGACAACACGCACCCACACAGACACAGAGGGAAGGGGUUGGGAUGGGAACAGGGUGCACAGCAGGGCGGGGUAGGACCCCAGCCCCU; value = 0.042
Oligonucleotide = UCAAGUCCUGUGCUACACAUCGUAUGUACCGAAUCGGAAAAAGGUUUGGUUUGGAAAGUAUUAUGUUACGCCGUUCGGAUCUGCACUUCC; value = -0.207

Block 2
Target: Histone acetyltransferase KAT6A, winged helix 1, GST fusion (KAT6A, Homo sapiens, UniProt Q92794, residues 1-85)
Method: protein binding microarray
Molecule type: double-stranded DNA, one strand shown
Sample: in vitro
Concentration: not given
Setting: 8-mer, flanks averaged, mean of 2 arrays, mostly near background
Reference: not given
Direction: higher = stronger binding
Measurement: E-score
Construct (chain): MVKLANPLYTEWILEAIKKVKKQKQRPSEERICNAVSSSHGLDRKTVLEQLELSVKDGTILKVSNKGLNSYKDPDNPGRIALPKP
Oligonucleotide = AGGCCCTC; value = -0.0179
Oligonucleotide = AAAATTGC; value = 0.076
Oligonucleotide = CACTGGGA; value = -0.222
Oligonucleotide = ACTCATCG; value = 0.0518
Oligonucleotide = GATGTCCA; value = -0.0147
Oligonucleotide = GAAGTTTA; value = -0.00649
Oligonucleotide = GCAACTGA; value = 0.00012
Oligonucleotide = CCTAAGAA; value = -0.174

Block 3
Target: Prothrombin, mature alpha-thrombin (F2, Homo sapiens, UniProt P00734)
Method: aptamer microarray, sandwich
Molecule type: DNA with 2'F-ANA
Sample: in vitro
Concentration: 200 nM
Setting: whole 15-mer aptamer, many near background
Together with: Cy3 exosite-II aptamer, 400 nM
Direction: higher = stronger binding
Measurement: mean fluorescence intensity
Oligonucleotide: GGTTGGTGTGGTTGG
Modification = 2'F-ANA at 1 3 6 7 8 13 14; value = 124 a.u.
Modification = 2'F-ANA at 4 6 7 8 11 13 14; value = 88.4 a.u.
Modification = 2'F-ANA at 1 4 6 10 11 12 14 15; value = 89.1 a.u.
Modification = 2'F-ANA at 1 4 5 11 12 14; value = 43.2 a.u.
Modification = 2'F-ANA at 1 2 3 4 7 8 10 12; value = 77.8 a.u.
Modification = 2'F-ANA at 1 2 4 5 10 11 14; value = 49 a.u.
Modification = 2'F-ANA at 1 5 7 8 9 11 12 14; value = 46.8 a.u.
Modification = 2'F-ANA at 1 2 3 4 9 11 12 13 14 15; value = 70.4 a.u.

Other studies, line by line
Molecule = HPVYHQVDTIQPHHH; target = UDP-N-acetylglucosamine--peptide N-acetylglucosaminyltransferase 110 kDa subunit (OGT, Homo sapiens, UniProt O15294); test = binding, phage display NGS; test system = peptide; conditions = concentration not given, panning round 2; scale = reference: input library; measurement = enrichment fold change; value = 4.88

Repeated from above (block 3):
Modification = 2'F-ANA at 1 3 6 7 8 13 14; value = 124 a.u.
Modification = 2'F-ANA at 4 6 7 8 11 13 14; value = 88.4 a.u.
Modification = 2'F-ANA at 1 4 6 10 11 12 14 15; value = 89.1 a.u.
Modification = 2'F-ANA at 1 4 5 11 12 14; value = 43.2 a.u.
